Assay results pooled from the literature.
A part holds a random share of what one study measured. Positions count from the first letter of the parent shown.
Sequence of UniProt Q9H832 (whole entry, looked up): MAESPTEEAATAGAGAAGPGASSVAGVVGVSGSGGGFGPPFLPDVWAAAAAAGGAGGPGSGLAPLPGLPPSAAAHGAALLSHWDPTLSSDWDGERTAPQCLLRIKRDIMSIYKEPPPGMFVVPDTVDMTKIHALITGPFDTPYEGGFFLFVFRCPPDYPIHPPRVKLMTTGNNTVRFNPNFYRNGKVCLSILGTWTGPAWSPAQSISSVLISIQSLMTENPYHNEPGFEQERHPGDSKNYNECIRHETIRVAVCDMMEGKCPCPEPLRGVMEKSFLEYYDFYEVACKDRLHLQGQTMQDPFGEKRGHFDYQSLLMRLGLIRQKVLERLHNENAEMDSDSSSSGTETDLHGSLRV
Sequence of UniProt Q969T4 (whole entry, looked up): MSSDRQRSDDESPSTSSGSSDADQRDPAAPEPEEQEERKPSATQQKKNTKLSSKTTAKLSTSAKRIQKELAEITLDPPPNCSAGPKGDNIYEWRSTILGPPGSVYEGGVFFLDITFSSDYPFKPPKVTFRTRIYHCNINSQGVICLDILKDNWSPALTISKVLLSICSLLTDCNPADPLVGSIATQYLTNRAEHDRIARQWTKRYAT
Sequence of UniProt Q9Y385 (whole entry, looked up): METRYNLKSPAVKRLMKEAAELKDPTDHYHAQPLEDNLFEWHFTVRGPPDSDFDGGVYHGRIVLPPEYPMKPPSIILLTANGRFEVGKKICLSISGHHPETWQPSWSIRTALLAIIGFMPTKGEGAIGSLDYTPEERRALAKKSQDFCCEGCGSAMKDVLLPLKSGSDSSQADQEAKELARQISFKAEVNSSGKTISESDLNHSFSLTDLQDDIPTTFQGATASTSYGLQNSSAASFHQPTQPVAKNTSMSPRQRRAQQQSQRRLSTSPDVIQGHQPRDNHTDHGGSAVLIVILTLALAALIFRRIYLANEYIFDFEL
Sequence of UniProt P68036 (whole entry, looked up): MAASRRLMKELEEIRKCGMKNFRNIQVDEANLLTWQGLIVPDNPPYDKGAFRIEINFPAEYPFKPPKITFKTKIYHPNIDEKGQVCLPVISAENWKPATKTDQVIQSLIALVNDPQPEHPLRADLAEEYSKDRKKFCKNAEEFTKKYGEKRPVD
Sequence of UniProt Q9NPD8 (whole entry, looked up): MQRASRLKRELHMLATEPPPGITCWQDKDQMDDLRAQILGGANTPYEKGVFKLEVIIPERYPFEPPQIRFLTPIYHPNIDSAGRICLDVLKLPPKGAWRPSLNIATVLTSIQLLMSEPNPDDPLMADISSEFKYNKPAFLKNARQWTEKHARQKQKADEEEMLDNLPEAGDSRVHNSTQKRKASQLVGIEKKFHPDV
Sequence of UniProt Q9C0C9 (whole entry, looked up): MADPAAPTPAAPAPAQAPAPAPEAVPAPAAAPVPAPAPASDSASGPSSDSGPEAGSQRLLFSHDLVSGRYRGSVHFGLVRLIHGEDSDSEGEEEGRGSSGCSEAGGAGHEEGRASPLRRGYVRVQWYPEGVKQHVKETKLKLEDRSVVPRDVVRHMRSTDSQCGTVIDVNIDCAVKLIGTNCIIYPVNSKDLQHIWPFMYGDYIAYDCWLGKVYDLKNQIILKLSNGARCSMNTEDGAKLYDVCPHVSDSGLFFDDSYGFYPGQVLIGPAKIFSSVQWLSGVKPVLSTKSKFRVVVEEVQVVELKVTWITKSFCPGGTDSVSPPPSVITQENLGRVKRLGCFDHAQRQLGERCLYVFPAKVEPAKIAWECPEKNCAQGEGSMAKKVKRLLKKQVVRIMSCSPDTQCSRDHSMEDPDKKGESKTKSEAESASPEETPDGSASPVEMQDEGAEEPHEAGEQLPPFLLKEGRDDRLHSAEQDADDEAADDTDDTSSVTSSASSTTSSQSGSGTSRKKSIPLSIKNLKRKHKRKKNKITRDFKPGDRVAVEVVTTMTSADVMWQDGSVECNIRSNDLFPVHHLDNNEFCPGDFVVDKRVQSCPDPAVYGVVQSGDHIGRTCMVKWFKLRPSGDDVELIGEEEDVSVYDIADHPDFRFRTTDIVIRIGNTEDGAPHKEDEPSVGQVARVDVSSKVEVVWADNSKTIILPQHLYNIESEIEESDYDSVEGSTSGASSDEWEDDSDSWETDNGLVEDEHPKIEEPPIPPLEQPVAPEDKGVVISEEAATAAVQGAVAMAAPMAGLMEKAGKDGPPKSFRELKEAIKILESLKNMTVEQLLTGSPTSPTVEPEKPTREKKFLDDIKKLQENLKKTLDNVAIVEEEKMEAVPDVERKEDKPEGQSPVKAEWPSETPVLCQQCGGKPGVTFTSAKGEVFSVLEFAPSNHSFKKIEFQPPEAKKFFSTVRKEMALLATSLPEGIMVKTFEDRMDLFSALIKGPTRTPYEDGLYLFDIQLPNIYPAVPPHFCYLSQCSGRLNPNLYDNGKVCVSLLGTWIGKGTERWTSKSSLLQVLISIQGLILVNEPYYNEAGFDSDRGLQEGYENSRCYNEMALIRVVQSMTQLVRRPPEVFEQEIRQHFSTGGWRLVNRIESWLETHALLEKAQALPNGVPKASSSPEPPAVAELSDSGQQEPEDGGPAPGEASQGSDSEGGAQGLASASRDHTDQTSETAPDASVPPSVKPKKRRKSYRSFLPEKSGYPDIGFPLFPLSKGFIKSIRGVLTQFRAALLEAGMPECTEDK
Sequence of UniProt O00762 (whole entry, looked up): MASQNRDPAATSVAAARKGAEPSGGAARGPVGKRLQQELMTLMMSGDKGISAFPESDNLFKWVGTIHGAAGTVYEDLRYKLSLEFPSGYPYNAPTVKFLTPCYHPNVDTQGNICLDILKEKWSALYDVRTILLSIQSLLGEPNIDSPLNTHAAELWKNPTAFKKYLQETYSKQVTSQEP

Sample 1 — technique: protein binding microarray; form: double-stranded DNA, one strand shown; medium: in vitro; concentration: not given; baseline: not given; direction: higher = stronger binding
Target: Histone acetyltransferase KAT6A, winged helix 1, GST fusion (KAT6A, Homo sapiens, UniProt Q92794, residues 1-85)
Setting: 8-mer, flanks averaged, mean of 2 arrays, mostly near background
Construct (chain): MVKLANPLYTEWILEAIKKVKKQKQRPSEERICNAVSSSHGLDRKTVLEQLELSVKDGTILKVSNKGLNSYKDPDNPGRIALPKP
Sequence	E-score
CACACCCG	0.124
CGGGCAAA	0.226
CACAATAC	-0.116
CTCTGCAC	-0.0573
TGCATCAA	-0.146
GCAATCGA	0.00342
AGTTAGCA	-0.136
GTCTCACA	-0.0238
GGCCAAGA	-0.174
ATCCATGC	-0.111
CTCTGTGA	-0.207
AAGCAACC	0.0112
ACTGATGA	-0.206
CCCAATTC	-0.296
CCGGCATA	0.338
CAAATACC	-0.04
ATGAAAAT	-0.226
AGGTCATG	-0.164
ATCAGCAG	-0.0126
GTGTACTA	-0.0258
CCGGAGAA	0.16
GTCGTCAA	-0.109
CGTATCGA	0.0832
ACGTGCCT	-0.215

Sample 2 — target: JDP2, bZIP domain (human); technique: DHFR protein complementation; medium: yeast; baseline: wild-type JUN-FOS pair; direction: higher = stronger binding
Setting: single substitutions, most at no-binding floor
Starting sequence: JUN, bZIP domain (human); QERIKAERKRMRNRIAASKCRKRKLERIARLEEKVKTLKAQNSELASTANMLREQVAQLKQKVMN; partner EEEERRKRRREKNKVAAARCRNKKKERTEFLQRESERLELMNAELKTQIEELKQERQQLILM
Substitution	binding fitness
L45G	-0.384 natural log
V35Y	0.292 natural log
V56T	0.148 natural log
A46S	0.263 natural log
L45I	0.0668 natural log
A40M	0.214 natural log
L45A	0.0853 natural log
T37P	-0.513 natural log
K36L	0.277 natural log
R53H	0.179 natural log
Q58P	-0.000712 natural log
I28S	0.212 natural log
A40R	0.247 natural log
N42E	0.217 natural log
S47Y	0.235 natural log
T37A	0.331 natural log
E54S	0.173 natural log
S43K	0.361 natural log
V35M	0.244 natural log
A40W	0.237 natural log
K34L	0.328 natural log
N42Y	0.267 natural log

Sample 3 — technique: RNA Bind-n-Seq; form: RNA; medium: in vitro; concentration: 1 µM; setting: whole 134-nt RNA, ends assumed; added: 150 mM KCl; baseline: input library; direction: higher = stronger binding
Target: Ras GTPase-activating protein-binding protein 1, C-terminal RGG region (G3BP1, Homo sapiens, UniProt Q13283)
Sequence of UniProt Q13283 (whole entry, looked up): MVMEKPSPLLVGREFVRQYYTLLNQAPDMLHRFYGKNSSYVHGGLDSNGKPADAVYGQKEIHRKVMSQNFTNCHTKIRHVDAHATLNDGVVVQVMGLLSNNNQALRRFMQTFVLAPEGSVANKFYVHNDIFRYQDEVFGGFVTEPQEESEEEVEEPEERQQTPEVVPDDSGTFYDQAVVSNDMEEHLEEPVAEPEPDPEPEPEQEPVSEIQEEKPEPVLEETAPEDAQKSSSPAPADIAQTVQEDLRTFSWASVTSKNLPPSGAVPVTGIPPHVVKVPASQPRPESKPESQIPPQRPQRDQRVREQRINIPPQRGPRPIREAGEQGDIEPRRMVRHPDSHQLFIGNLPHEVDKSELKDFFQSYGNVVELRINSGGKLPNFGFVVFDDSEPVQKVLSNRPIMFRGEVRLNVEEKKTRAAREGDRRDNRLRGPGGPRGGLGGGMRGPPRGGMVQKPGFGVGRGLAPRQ
All sequences stand within: GGGAGUUCUACAGUCCGACGAUC … UGGAAUUCUCGGGUGUCAAGG
Sequence	log2 enrichment
UGGCCCUGGUUGCAUGCGGGGAGGAAGAGGUGGCCUCAUGGAUCGUGGUGGUCCCGGUGGAAUGUUCAGAGGUGGCCGUGGUGGAGACAG	2.32
CACAGACAACACGCACCCACACAGACACAGAGGGAAGGGGUUGGGGUGGGGACAGGGUGCACAGCAGGGCGGGGUAGGACCCCAGCCCCU	0.0078
AGUCCUGUGCUACACAUCGUAUGUACCGAAUCGGGGUUUUGGGGUUUUGGGUUUUGGGAAAGUAUUAUGUUACGCCGUUCGGAUCUGCAC	0.815
GGAUUGGUAGCUUAUGUCGAUCUUGAUGAAAGAGCAAUUGAUGCUCUCAGGGAAUUUAAUGAAGAAGGAGCUCUGUCUGUACUACAGCAG	-1.82
AGUCCUGUGCUACACAUCGUAUGUACCGAAUCGGAAAAAGGAAAAAGGAAAAAAAGGAAAGUAUUAUGUUACGCCGUUCGGAUCUGCACU	-2.06
GUCCUGUGCUACACAUCGUAUGUACCGAAUCAAAUUUUUAAACCCCCAAACCCCCAAAAAAGUAUUAUGUUACGCCGUUCGGAUCUGCAC	-0.901
AGUCCUGUGCUACACAUCGUAUGUACCGAAUCGGGAAAAAGGGAAAAAGGGAAAGGGAAAGUAUUAUGUUACGCCGUUCGGAUCUGCACU	0.302
CACAGACAACACGCACCCACACAGACACAGAGGGAAGGGGUUGGGAUGGGGACAGGGUGCACAGCAGGGCGGGGUAGGACCCCAGUCCCU	-1.07
CUGUGCUACACAUCGUAUGUACCGAAUCGGGGAAAAAGGGGUUUUUGGGGUUUUUUUGGGGAAAGUAUUAUGUUACGCCGUUCGGAUCUG	0.352

Sample 4 — Sequence: B1 (RC3H1 RING domain); technique: yeast two-hybrid; medium: yeast; setting: mostly zero background; baseline: not given; direction: higher = stronger interaction
B1: RC3H1 RING domain (UniProt Q5TC82); chain QAPQWTDFLSCPICTQTFDETIRKPISLGCGHTVCKMCLNKLHRKACPFDQTTINTDIELL
target	lacZ reporter activity
UBE2Z UBC core domain (UniProt Q9H832)	0
UBE2T UBC core domain (UniProt Q9NPD8)	0
UBE2E3 UBC core domain (UniProt Q969T4)	0
UBE2J1 UBC core domain (UniProt Q9Y385)	0
UBE2O UBC core domain (UniProt Q9C0C9)	0
UBE2C UBC core domain (UniProt O00762)	0
UBE2L3 UBC core domain (UniProt P68036)	0

Sample 5 — technique: universal PBM; form: double-stranded DNA, one strand shown; medium: in vitro; concentration: 600 nM; direction: higher = stronger binding
Target: Sal-like protein 4, full length isoform A (SALL4, Homo sapiens, UniProt Q9UJQ4, residues 1-1053)
Sequence of UniProt Q9UJQ4 (whole entry, looked up): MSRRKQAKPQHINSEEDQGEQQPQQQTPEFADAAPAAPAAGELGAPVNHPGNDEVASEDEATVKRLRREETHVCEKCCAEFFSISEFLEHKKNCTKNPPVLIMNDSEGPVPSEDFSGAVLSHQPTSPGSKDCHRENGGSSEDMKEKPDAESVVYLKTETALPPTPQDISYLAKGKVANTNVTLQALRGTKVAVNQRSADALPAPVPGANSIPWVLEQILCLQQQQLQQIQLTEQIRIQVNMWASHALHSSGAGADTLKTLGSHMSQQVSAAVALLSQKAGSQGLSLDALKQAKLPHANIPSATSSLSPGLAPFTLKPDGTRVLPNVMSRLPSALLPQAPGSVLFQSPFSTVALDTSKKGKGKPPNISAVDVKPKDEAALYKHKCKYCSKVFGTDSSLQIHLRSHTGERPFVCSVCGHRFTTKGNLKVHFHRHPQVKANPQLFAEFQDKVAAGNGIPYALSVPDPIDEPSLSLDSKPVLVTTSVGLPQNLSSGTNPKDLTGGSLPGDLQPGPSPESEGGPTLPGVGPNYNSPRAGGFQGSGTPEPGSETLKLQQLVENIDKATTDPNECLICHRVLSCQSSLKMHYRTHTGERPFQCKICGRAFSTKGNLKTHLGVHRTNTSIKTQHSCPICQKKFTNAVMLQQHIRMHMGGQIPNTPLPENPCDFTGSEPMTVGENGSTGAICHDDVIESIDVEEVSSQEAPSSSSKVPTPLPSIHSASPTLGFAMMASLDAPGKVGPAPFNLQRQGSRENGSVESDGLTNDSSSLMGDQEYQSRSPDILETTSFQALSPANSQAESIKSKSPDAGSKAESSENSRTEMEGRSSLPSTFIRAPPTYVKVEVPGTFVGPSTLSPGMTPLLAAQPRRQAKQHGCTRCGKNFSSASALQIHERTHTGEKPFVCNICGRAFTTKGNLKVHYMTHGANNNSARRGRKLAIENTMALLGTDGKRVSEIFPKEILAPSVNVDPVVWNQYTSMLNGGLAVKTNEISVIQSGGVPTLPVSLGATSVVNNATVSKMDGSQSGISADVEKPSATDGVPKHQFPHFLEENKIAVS
Setting: 8-mer, flanks averaged, mean of replicates
Sequence	E-score
GAGCGGAC	-0.344
TAATTTCA	0.323
CTCCAACA	-0.00156
CGCTAAGC	-0.216
CTGAGGCC	-0.321
ATTACTTG	0.237
AATTAAGT	0.31
CCAGAGCC	-0.273
GCTCTAAC	-0.0974
GGCACGAC	-0.128
ACTAAGAG	-0.0382
CTCCATCA	0.00218
AATAAACG	0.329
ATCCGACG	-0.12
GCGGCAGA	-0.282
CAGACTGG	-0.179
GATGTCAC	-0.0663
CTACGGAC	-0.219
TGGTGGAA	-0.0595
CAATTCAC	0.242
CTCTTGCC	-0.105
GTAAGTGA	0.0914
GACGACAC	-0.115
AGGAGCCG	-0.293
GGAACGCC	-0.264

Repeated from above (sample 3):
Sequence	log2 enrichment
GGAUUGGUAGCUUAUGUCGAUCUUGAUGAAAGAGCAAUUGAUGCUCUCAGGGAAUUUAAUGAAGAAGGAGCUCUGUCUGUACUACAGCAG	-1.82
AGUCCUGUGCUACACAUCGUAUGUACCGAAUCGGAAAAAGGAAAAAGGAAAAAAAGGAAAGUAUUAUGUUACGCCGUUCGGAUCUGCACU	-2.06
GUCCUGUGCUACACAUCGUAUGUACCGAAUCAAAUUUUUAAACCCCCAAACCCCCAAAAAAGUAUUAUGUUACGCCGUUCGGAUCUGCAC	-0.901
AGUCCUGUGCUACACAUCGUAUGUACCGAAUCGGGAAAAAGGGAAAAAGGGAAAGGGAAAGUAUUAUGUUACGCCGUUCGGAUCUGCACU	0.302
CACAGACAACACGCACCCACACAGACACAGAGGGAAGGGGUUGGGAUGGGGACAGGGUGCACAGCAGGGCGGGGUAGGACCCCAGUCCCU	-1.07
CUGUGCUACACAUCGUAUGUACCGAAUCGGGGAAAAAGGGGUUUUUGGGGUUUUUUUGGGGAAAGUAUUAUGUUACGCCGUUCGGAUCUG	0.352
